# Results collected from several papers.
# Numbered parts are unrelated; each lists some results of a single study. Positions count from the first letter of the parent shown.
# UniProt O15294, sequence (whole entry, looked up): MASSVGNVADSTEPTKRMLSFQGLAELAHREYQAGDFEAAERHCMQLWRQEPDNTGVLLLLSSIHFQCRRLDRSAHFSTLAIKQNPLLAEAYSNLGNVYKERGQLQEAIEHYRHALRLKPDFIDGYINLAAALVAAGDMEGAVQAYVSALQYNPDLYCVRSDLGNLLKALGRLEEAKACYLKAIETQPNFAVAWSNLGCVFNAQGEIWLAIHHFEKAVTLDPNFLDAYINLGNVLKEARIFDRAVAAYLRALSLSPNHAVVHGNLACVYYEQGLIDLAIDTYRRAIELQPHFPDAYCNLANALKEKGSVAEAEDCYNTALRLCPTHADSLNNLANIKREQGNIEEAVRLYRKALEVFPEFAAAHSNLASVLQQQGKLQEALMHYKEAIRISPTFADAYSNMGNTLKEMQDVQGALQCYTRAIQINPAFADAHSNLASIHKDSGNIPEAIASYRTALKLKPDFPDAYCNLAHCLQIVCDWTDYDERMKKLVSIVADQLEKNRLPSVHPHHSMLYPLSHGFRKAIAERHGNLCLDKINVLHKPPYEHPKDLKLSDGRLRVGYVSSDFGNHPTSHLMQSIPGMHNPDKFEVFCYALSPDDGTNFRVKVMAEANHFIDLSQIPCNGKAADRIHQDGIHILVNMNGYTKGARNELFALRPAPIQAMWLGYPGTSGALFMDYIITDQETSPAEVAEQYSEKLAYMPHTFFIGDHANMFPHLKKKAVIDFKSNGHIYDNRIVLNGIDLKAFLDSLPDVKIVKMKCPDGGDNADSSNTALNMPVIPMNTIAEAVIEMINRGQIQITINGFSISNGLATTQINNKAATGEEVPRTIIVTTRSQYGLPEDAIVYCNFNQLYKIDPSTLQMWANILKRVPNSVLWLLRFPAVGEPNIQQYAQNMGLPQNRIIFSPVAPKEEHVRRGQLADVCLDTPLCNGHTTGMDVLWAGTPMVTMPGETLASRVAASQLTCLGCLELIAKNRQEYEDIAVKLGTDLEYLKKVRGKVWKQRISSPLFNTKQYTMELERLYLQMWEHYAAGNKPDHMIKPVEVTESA

# Sample 1
# Target: TAR DNA-binding protein 43, full length, His tag (TARDBP, Homo sapiens, UniProt Q13148, residues 1-414)
# Technique: RNA Bind-n-Seq
# Form: RNA
# Medium: in vitro
# Tested at: 20 nM
# Setting: 6-mer, flanks averaged, single round
# With: 150 mM LiCl
# Relative to: input library
# Direction: higher = stronger binding
Strand,6-mer enrichment (R)
CUGUAG,1.12
GGGCGA,1.12
AUUCUC,0.869
AACAAA,0.893
AUACCU,0.867
AUCCGU,0.839
UCUUUG,1.03
GCUAAA,0.874

# Sample 2
# Target: Histone acetyltransferase KAT6A, winged helix 1, GST fusion (KAT6A, Homo sapiens, UniProt Q92794, residues 1-85)
# Technique: protein binding microarray
# Form: double-stranded DNA, one strand shown
# Medium: in vitro
# Tested at: not given
# Setting: 8-mer, flanks averaged, mean of 2 arrays, mostly near background
# Relative to: not given
# Direction: higher = stronger binding
# Target sequence (chain): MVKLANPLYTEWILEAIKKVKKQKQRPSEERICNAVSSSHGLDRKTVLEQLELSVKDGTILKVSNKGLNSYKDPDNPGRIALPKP
Strand,E-score
GGTGACAA,0.0335
AATCTAAA,-0.199
AAATCACG,0.101
ACATCGTG,-0.0165
AGGGACAA,-0.06
AGAAGCGG,0.186
AGTCGCGA,0.191
AGGACTTG,-0.249

# Mixed results
# P1: PafA, mature enzyme, eGFP fusion (Elizabethkingia meningoseptica, UniProt Q9KJX5); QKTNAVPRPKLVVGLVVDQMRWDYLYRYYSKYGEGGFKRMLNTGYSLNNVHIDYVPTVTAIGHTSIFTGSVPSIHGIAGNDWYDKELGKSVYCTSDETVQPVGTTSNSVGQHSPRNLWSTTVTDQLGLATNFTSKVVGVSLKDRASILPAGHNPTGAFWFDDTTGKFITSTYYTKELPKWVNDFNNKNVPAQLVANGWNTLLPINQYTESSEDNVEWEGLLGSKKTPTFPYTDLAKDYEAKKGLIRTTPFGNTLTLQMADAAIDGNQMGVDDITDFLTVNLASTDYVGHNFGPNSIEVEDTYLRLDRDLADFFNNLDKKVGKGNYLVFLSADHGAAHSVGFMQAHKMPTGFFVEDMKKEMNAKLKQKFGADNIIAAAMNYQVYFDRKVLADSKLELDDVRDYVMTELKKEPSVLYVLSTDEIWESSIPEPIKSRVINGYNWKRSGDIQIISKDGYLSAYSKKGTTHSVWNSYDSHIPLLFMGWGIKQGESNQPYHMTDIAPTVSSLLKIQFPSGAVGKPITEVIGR
Molecule,target,test,test system,setting,how to read,quantity,result
P1 P230G,"inorganic phosphate, free oxyanion",microfluidic competitive inhibition,"in vitro, cell-free expressed","not given, derived from inhibition constants, unchanged parent 615000 nM",lower = stronger binding,phosphate dissociation constant,514 µM
HWPYHHALDQPQRQD,"OGT (Homo sapiens, UniProt O15294)","binding, phage display NGS",peptide,panning round 2,relative to: input library,minimum log2 enrichment ratio,2.22

# A few entries again (sample 1):
Strand,6-mer enrichment (R)
CUGUAG,1.12
AUUCUC,0.869
